Measured values gathered from unrelated publications.
A part holds a random share of what one study measured. Positions count from the first letter of the parent shown.

Study 1 — target: CCNB1, cyclin fold, Cln2 fusion (human); technique: yeast growth competition, sequencing; medium: yeast; setting: weak parent motif; reference: not given; reading: higher = stronger binding
Starting sequence: FZR1 docking peptide (human); QDYERRLLRQIVI
| Change | normalised enrichment score |
| --- | --- |
| QDYERRLFRQIVI [L8F] | 0.176 |
| QAYERRLLRQIVI [D2A] | 0.488 |
| QDYERRLLAQIVI [R9A] | -0.839 |
| QDYERRLLRAIVI [Q10A] | 0.0717 |
| QDYEARALRQIVI [R5A L7A] | 0.233 |
| QDYEARLLRQIVI [R5A] | 1.19 |
| QDYEKRLFRQIVI [R5K L8F] | 0.173 |
| ADYERRLLRQIVI [Q1A] | 0.56 |
| QDYERALLRQIVI [R6A] | 0.764 |
| QDYERRLLRQIVA [I13A] | 0.0227 |

Study 2 — technique: aptamer microarray, sandwich; molecule type: DNA with 2'F-ANA; medium: in vitro; tested at: 200 nM; together with: Cy3 exosite-II aptamer, 400 nM; reading: higher = stronger binding; sequence: GGTTGGTGTGGTTGG
Target: Prothrombin, mature alpha-thrombin (F2, Homo sapiens, UniProt P00734)
Setting: whole 15-mer aptamer, many near background
| Modification | mean fluorescence intensity |
| --- | --- |
| 2'F-ANA at 1 2 3 5 8 9 10 11 12 13 15 | 66.4 a.u. |
| 2'F-ANA at 2 3 5 6 7 10 14 15 | 48.1 a.u. |
| 2'F-ANA at 1 2 8 10 11 12 | 60.7 a.u. |
| 2'F-ANA at 3 5 6 8 9 10 | 53.1 a.u. |
| 2'F-ANA at 7 8 11 14 15 | 206 a.u. |
| 2'F-ANA at 2 5 8 14 15 | 44.9 a.u. |
| 2'F-ANA at 1 2 6 9 11 | 116 a.u. |
| 2'F-ANA at 2 3 5 8 10 11 12 | 59.8 a.u. |
| 2'F-ANA at 1 2 4 5 8 9 12 | 126 a.u. |
| 2'F-ANA at 3 5 6 9 11 13 15 | 67.4 a.u. |
| 2'F-ANA at 4 5 7 9 12 | 158 a.u. |
| 2'F-ANA at 2 3 5 6 7 10 11 13 14 15 | 51.7 a.u. |
| 2'F-ANA at 4 5 8 9 10 11 13 | 89.3 a.u. |
| 2'F-ANA at 1 2 4 7 8 13 15 | 101 a.u. |
| 2'F-ANA at 1 2 3 5 6 7 9 10 11 15 | 84 a.u. |
| 2'F-ANA at 7 8 10 11 14 | 116 a.u. |
| 2'F-ANA at 1 2 3 5 6 8 | 227 a.u. |
| 2'F-ANA at 1 2 3 4 7 8 9 12 14 | 91.1 a.u. |
| 2'F-ANA at 1 2 3 9 10 12 13 14 | 54.4 a.u. |
| 2'F-ANA at 1 7 8 11 12 13 14 15 | 75.5 a.u. |
| 2'F-ANA at 1 4 5 7 8 9 10 13 | 47.2 a.u. |
| 2'F-ANA at 1 3 5 7 8 10 11 14 15 | 144 a.u. |
| 2'F-ANA at 1 3 7 9 12 | 563 a.u. |
| 2'F-ANA at 1 4 9 10 12 14 15 | 62.4 a.u. |
| 2'F-ANA at 4 6 8 9 10 12 | 106 a.u. |

Study 3 — target: CEBPE, bZIP domain (human); technique: DHFR protein complementation; medium: yeast; reference: wild-type JUN-FOS pair; reading: higher = stronger binding
Setting: single substitutions, most at no-binding floor
Starting sequence: JUN, bZIP domain (human); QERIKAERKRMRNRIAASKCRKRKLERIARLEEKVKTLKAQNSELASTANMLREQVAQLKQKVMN; partner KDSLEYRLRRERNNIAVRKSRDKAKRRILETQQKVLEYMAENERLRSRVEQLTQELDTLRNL
| Change | binding fitness |
| --- | --- |
| V56S | -1.55 natural log |
| K34H | -1.17 natural log |
| T48V | -1.22 natural log |
| T37C | -1.09 natural log |
| S43A | -0.878 natural log |
| T48C | -1.29 natural log |
| A49Q | -1.33 natural log |
| Q41P | -1.55 natural log |
| E44G | -1.41 natural log |
| R30K | -1.09 natural log |
| T37V | -1.03 natural log |
| K36P | -1.53 natural log |
| L38T | -1.54 natural log |
| L52Q | -1.46 natural log |
| M51G | -1.31 natural log |
| I28E | -1.07 natural log |
| I28T | -1.31 natural log |
| I28N | -1.25 natural log |
| A46K | -1.1 natural log |
| A57G | -1.28 natural log |
| I28V | -1.16 natural log |
| S47T | -1.05 natural log |
| L52T | -1.54 natural log |

Study 4 — technique: protein-binding microarray; molecule type: double-stranded DNA, one strand shown; medium: in vitro; tested at: 250 nM; setting: 60-bp whole probe; together with: salmon DNA 0.4 mg/ml; reference: random background probes; reading: higher = stronger binding; all sequences stand within: GCCTAGCAC … GTCTTGATTCGCTTGACGCTGCTG
Target: Interferon regulatory factor 7, full length, phosphomimetic (IRF7, Homo sapiens, UniProt Q92985, residues 1-503, S101K/S471D/S472D/S475D/S476D/S477D/S483D/S484D/S487D)
Target sequence (chain): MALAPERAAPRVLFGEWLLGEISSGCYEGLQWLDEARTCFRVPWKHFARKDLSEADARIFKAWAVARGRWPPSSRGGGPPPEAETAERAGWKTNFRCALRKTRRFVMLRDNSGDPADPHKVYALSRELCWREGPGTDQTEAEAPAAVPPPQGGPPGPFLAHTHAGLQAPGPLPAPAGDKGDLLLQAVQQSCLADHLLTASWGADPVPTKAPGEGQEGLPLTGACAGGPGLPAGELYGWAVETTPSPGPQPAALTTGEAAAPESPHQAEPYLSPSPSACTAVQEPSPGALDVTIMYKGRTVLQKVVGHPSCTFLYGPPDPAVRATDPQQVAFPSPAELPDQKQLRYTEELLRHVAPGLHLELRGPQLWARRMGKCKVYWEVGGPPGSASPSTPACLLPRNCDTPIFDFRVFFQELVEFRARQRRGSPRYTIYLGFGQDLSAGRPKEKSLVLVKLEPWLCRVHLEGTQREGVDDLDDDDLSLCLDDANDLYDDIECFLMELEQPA
| Sequence | log fluorescence [z-score] |
| --- | --- |
| GACGGTCTCGTTTTCCTGACGTGCTAG | 6.96 |
| ATAGGACTGGGGTTTCGGTTAGTGCTA | 5.22 |
| TTAGAACTGGGGTAGCGATTAGTGCTA | -0.926 |
| TCATTTCTATATTTGCTACTGTGCTAG | 1.93 |
| GACGGTATCGGGTATAGGGACGTGCTA | 0.0437 |
| GACGGACAGGACACTGGGGACGTGCTA | -0.608 |
| GCCTTTTTTTTTTTTTCTGAGTGCTAG | 1.37 |
| GACGGGTCCCTTTTCCTGACGTGCTAG | 1.43 |
| TTAGGTATCCTTTTCCTTAAGTGCTAG | 2.16 |
| TTAGATTTCAGTTCCGATTAGTGCTAG | 1.85 |
| GACGGACTGGGCTTCGGGACGTGCTAG | -0.439 |
| TTTGATCTCAGTCTCGATTAGTGCTAG | 1.31 |
| GACGGACTGGGGACTGGGGAGGTGCTA | -0.519 |
| TCAGGTTTTTTTTTAATACTGTGCTAG | 0.384 |

Repeated from above (study 3):
| Change | binding fitness |
| --- | --- |
| L38T | -1.54 natural log |
| R30K | -1.09 natural log |
| A57G | -1.28 natural log |
| I28E | -1.07 natural log |
| T48C | -1.29 natural log |
| A46K | -1.1 natural log |
| S47T | -1.05 natural log |
| V56S | -1.55 natural log |
